Measured values of several laboratories.
Compare with care: the assays were run in different laboratories. Several values in a cell are separate wells, animals, samples, runs or records. Numbers after ± are the reported error.
PSMB5: Proteasome Macropain subunit MB1 (PSMB5, Homo sapiens, UniProt P28074)
Sequence of UniProt P28074 (whole entry, looked up): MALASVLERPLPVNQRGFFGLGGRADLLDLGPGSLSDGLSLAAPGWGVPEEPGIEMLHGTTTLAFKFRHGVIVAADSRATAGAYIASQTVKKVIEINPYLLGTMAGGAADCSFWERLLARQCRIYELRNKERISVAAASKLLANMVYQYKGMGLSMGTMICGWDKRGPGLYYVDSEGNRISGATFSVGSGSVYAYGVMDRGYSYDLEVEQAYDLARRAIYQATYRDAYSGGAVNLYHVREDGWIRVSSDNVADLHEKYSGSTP
Thymocyte selection-associated high mobility group box protein TOX with KAT7: Thymocyte selection-associated high mobility group box protein TOX, with KAT7 (Homo sapiens, UniProt O94900)
Sequence of UniProt P32745 (whole entry, looked up): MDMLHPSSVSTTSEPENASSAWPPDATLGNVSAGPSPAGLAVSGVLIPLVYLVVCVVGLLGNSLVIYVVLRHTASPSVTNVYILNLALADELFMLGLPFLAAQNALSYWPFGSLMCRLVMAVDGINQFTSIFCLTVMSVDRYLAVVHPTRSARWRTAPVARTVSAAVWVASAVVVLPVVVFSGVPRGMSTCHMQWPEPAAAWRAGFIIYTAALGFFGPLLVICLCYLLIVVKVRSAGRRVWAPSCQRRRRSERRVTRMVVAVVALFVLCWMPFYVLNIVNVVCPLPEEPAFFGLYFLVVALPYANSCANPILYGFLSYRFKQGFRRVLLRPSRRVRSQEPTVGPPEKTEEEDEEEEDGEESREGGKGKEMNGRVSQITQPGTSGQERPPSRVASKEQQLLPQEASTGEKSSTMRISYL
Sequence of UniProt P41968 (whole entry, looked up): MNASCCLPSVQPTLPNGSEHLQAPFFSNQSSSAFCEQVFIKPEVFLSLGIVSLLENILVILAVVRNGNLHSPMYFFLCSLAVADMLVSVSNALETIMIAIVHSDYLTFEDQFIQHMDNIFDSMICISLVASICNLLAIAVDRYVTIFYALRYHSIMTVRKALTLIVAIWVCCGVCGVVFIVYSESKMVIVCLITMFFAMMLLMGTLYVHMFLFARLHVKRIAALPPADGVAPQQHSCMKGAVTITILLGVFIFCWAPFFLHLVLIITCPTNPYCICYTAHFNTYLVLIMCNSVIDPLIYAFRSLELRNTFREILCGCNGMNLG
Sequence of UniProt O94900 (whole entry, looked up): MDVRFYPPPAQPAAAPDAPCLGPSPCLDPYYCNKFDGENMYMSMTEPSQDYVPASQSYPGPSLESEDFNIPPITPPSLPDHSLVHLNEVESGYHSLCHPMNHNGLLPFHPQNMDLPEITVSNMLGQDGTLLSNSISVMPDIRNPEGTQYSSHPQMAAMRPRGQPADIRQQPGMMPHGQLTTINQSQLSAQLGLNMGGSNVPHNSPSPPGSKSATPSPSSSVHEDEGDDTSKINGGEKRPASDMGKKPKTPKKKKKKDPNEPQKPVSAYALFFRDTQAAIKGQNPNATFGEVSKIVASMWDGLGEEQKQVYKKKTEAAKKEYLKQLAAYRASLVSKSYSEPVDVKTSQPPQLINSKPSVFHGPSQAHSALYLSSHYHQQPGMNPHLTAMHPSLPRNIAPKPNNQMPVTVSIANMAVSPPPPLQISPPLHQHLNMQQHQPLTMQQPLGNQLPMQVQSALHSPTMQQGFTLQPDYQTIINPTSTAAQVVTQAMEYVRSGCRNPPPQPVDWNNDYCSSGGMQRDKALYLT
Sequence of UniProt P61073 (whole entry, looked up): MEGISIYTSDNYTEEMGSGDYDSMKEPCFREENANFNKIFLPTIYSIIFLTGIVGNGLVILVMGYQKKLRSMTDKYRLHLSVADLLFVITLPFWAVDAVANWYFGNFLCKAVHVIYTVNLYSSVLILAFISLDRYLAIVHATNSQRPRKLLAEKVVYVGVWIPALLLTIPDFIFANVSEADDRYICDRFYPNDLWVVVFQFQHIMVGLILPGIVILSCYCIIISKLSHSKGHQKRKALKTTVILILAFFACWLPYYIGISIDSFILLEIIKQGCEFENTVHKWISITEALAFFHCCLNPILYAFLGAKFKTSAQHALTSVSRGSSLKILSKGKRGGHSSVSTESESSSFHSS
Sequence of UniProt P08235 (whole entry, looked up): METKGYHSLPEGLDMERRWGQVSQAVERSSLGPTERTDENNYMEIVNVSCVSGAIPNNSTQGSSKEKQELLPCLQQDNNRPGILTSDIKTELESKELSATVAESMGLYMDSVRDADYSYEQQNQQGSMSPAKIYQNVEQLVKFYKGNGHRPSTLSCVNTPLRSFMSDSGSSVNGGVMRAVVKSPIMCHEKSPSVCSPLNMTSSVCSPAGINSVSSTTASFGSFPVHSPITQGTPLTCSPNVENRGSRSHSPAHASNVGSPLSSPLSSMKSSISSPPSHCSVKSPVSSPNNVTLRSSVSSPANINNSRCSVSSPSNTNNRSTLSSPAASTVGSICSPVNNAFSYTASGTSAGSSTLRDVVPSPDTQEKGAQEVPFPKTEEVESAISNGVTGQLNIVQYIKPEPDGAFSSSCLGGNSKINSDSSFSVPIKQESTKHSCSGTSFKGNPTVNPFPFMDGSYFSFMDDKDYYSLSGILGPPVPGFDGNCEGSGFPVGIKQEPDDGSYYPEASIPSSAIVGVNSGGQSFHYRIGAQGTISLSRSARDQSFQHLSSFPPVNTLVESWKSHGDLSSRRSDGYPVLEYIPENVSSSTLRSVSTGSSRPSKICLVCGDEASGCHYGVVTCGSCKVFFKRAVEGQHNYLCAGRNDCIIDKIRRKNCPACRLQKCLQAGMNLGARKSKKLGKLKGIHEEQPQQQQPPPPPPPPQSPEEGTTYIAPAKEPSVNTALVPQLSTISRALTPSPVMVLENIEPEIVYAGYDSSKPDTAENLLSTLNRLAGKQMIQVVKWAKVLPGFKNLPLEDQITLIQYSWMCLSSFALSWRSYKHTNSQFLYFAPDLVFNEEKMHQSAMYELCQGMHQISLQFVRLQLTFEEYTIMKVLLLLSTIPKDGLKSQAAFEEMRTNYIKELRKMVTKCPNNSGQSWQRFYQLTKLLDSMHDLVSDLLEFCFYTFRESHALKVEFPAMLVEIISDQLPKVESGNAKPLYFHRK
Sequence of UniProt P28065 (whole entry, looked up): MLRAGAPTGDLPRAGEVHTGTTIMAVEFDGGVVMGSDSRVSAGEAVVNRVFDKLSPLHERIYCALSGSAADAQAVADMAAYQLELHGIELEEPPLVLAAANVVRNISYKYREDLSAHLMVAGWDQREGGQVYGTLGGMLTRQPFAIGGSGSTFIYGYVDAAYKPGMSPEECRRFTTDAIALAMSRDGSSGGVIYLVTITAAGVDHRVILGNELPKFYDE
Sequence of UniProt Q9UPE1 (whole entry, looked up): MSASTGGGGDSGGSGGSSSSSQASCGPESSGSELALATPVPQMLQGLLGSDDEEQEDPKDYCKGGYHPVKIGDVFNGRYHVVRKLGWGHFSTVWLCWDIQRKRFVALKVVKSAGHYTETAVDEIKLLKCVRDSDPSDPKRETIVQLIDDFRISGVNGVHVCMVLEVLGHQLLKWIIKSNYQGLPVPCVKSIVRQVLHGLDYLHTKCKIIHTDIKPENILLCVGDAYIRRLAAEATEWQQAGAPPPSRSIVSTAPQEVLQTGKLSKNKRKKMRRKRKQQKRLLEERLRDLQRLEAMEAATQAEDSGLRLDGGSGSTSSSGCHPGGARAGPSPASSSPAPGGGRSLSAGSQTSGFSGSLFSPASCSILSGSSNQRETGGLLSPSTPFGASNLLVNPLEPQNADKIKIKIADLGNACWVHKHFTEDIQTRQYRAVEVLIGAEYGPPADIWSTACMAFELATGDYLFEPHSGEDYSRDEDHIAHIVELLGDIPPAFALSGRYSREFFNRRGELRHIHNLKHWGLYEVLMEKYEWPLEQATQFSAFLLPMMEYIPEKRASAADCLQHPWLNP
Sequence of UniProt P13500 (whole entry, looked up): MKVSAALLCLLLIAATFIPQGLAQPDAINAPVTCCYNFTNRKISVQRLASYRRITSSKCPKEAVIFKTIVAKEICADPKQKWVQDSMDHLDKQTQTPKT
Sequence of UniProt Q9QXD6 (whole entry, looked up): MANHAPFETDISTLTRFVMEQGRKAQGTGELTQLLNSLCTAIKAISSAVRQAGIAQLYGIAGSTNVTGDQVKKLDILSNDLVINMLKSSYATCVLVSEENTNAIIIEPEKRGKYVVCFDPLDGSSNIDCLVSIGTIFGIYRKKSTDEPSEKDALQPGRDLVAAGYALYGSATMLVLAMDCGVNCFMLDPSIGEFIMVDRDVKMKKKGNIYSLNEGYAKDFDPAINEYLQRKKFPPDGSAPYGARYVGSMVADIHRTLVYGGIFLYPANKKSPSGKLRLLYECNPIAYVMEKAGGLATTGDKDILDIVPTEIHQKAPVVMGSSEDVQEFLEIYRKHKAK
Sequence of UniProt Q9NZQ7 (whole entry, looked up): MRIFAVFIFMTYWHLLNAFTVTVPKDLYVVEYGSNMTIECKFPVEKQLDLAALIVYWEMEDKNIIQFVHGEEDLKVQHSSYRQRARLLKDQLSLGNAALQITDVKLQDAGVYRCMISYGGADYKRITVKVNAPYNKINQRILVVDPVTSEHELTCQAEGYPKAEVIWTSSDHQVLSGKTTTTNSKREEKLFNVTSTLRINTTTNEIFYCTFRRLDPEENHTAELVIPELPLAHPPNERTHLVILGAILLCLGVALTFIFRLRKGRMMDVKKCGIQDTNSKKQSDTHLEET
Sequence of UniProt P07550 (whole entry, unmodified, looked up): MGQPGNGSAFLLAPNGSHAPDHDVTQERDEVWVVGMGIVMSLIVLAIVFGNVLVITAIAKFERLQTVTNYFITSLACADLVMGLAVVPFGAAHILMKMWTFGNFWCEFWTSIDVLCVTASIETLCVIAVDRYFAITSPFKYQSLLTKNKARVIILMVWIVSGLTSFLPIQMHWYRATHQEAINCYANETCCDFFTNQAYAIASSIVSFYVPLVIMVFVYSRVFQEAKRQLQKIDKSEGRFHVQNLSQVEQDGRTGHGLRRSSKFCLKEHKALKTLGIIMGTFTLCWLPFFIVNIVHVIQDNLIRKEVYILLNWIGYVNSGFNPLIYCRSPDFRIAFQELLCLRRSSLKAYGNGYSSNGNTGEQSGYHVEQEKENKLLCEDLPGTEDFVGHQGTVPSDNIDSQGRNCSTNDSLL

NC(=O)c1ncn(C2OC(COP(=O)(O)O)C(O)C2O)c1N (stereo not drawn) — IC50 (Fructose-1,6-bisphosphatase 1 (Mus musculus, UniProt Q9QXD6); enzyme activity, inhibitor): 108 µM
Fc1ccc(Nc2nc(NC3CCCCC3)c3ccccc3n2)cc1F — IC50 (ADRB2 (Homo sapiens, UniProt P07550, G162A); β-arrestin2 recruitment, antagonist, BRET; HEK293; mutant G162A, added: isoprenaline 1 µM): 0.631 µM
CC1CCCN(CCCNC(=O)C2=Cc3sc4c(c3CS2)CCCC4)C1 (stereo not drawn) — IC50 (Catenin beta-1, with BCL9 HD2 (CTNNB1, Homo sapiens, UniProt P35222); BCL9 binding, inhibitor, AlphaScreen): 9 µM
CCCCCCCCN(Cc1ccc(CNC(=O)OCCOC23CC4CC(C2)CC(C(N)C(=O)N2C(C#N)CC5CC52)(C4)C3)cc1)CC(O)C(O)C(O)C(O)CO (stereo not drawn) — IC50 (DPP9 (Homo sapiens, UniProt Q86TI2); enzyme activity, inhibitor; with preincubation): 0.6 µM
CC(C)C[C@H](NC(=O)[C@H](CC(N)=O)NC(=O)[C@H](CC(N)=O)NC(=O)[C@H](CO)NC(=O)[C@H](CO)NC(=O)[C@H](CCCNC(=N)N)NC(=O)[C@@H](NC(=O)[C@H](CC(C)C)NC(=O)[C@H](Cc1ccccc1)NC(=O)[C@H](CC(N)=O)NC(=O)[C@H](C)NC(=O)[C@H](CC(C)C)NC(=O)[C@H](CCCNC(=N)N)NC(=O)[C@H](CCC(N)=O)NC(=O)[C@@H](NC(=O)[C@H](C)NC(=O)[C@@H]1CSSC[C@H](NC(=O)[C@@H](N)CCCCN)C(=O)N[C@@H](CC(N)=O)C(=O)N[C@@H]([C@@H](C)O)C(=O)N[C@@H](C)C(=O)N[C@@H]([C@@H](C)O)C(=O)N1)[C@@H](C)O)C(C)C)C(=O)NCC(=O)N1CCC[C@H]1C(=O)N[C@H](C(=O)N[C@@H](CC(C)C)C(=O)N1CCC[C@H]1C(=O)N1CCC[C@H]1C(=O)N[C@H](C(=O)N[C@@H](CC(N)=O)C(=O)N[C@H](C(=O)NCC(=O)N[C@@H](CO)C(=O)N[C@@H](CC(N)=O)C(=O)N[C@H](C(=O)N[C@@H](Cc1ccc(O)cc1)C(N)=O)[C@@H](C)O)C(C)C)[C@@H](C)O)C(C)C — IC50 (PSMB5; chymotrypsin-like activity, inhibitor; purified 20S proteasome; added: Suc-LLVY-AMC): ~0.1 µM
C=C(NC(=O)c1csc(-c2nc3c(cc2O)-c2nc(cs2)C(=O)NC(C(C)O)C(=O)NC(=C(C)OC)c2nc(cs2)C(=O)NC2c4nc(cs4)C(=O)NC(COC(=O)c4c5c6c(cccc6n4O)COC(=O)C(OC4CC(C)(O)C(N(C)C)C(C)O4)C2OC5)c2nc-3cs2)n1)C(N)=O (stereo not drawn) — AUC(0-t) (ICR mice, Streptococcus pneumoniae ATCC 49169 infected, immunocompromised, blood; intravenous, 8 mg/kg twice daily): 0.538 µM·h
CC(=O)N[C@@H](CCCNC(=N)N)C(=O)N[C@H]1CSSC[C@@H](C(N)=O)NC(=O)[C@H](Cc2c[nH]c3ccccc23)NC(=O)[C@H](CCCNC(=N)N)NC(=O)[C@@H](Cc2ccc3ccccc3c2)NC(=O)[C@H](Cc2c[nH]cn2)NC(=O)[C@@H](C)NC1=O — IC50 (MC3R (Homo sapiens, UniProt P41968); antagonist, split-luciferase cAMP sensor; 12 min, added: 30 nM α-MSH (EC90)): 0.0213 µM and 0.0223 µM
C=CC(=O)Nc1ccc2nc(NCCCCCN(C)C)nc(NCCCCCCN(C)C)c2c1 — IC50 (SETDB1 (Homo sapiens, UniProt Q15047); enzyme activity, inhibitor): 0.311 µM and 0.575 µM and 0.39 µM
CO[C@@H]1[C@@H](OC(=O)c2ccc(C)[nH]2)[C@@H](O)[C@H](Oc2ccc3c(O)c(NC(=O)c4c[nH]c(C(=O)Nc5c(O)c6ccc(O[C@@H]7OC(C)(C)[C@H](OC)[C@@H](OC(=O)c8ccc(C)[nH]8)[C@H]7O)c(C)c6oc5=O)c4C)c(=O)oc3c2C)OC1(C)C — IC50 (human CMG helicase; helicase activity; added: ATP 2 mM): 12.3 µM
CC(C)C[C@H](NC(=O)[C@H](Cc1ccc(CN)cc1)NC(=O)[C@H](Cc1ccccc1)N=[N+]=[N-])C(=O)N[C@@H](CC1CCCC2CCCCC21)C(=O)[C@@]1(C)CO1 (stereo partly drawn) — IC50 (Proteasome subunit beta type-9 (Homo sapiens, UniProt P28065); competitive ABPP; Raji cell lysate): > 10 µM
CN1CCCC1C(=O)NC(Cc1ccc(-n2cccn2)cc1)B(O)O (stereo not drawn) — IC50 (20S proteasome beta subunits, part β2 subunit (Plasmodium falciparum, UniProt Q8I261+Q8I6T3); β2 activity, inhibitor; added: Ac-WLR-AMC): > 10 µM
C[C@@H](Nc1c(-c2c(F)cc(C#N)cc2F)c(Cl)nc2ncnn12)C(C)(C)C — IC50 (ABCB1 (Homo sapiens, UniProt P08183); inhibitor): > 30 µM
Clc1cc(Cl)cc(CNCCCNc2nc3ncccc3[nH]2)c1 — IC50 (Methionyl-tRNA synthetase, putative (Trypanosoma brucei brucei, UniProt Q38C91); enzyme activity, inhibitor): < 0.01 µM
O=C(Nc1cccc(N2CCNCC2)c1)c1cc(-c2ccccc2)n(-c2ccccc2)n1 — IC50 (Genome polyprotein, NS2B-NS3 protease (West Nile virus, UniProt P06935); protease activity, inhibitor; isolated protease): 32 µM
CC(C)Oc1ccc(-c2cccc(C(C)N(C)C(=O)c3cc(S(N)(=O)=O)ccc3O)c2)cc1 (stereo not drawn) — IC50 (CA9 (Homo sapiens, UniProt Q16790); enzyme activity, inhibitor): 0.00603 µM
N=C(N)Nc1cccc(C(=O)NCC(=O)NC[C@H](NC(=O)c2c(Cl)cc(-c3ccc(Cl)c(F)c3)cc2Cl)C(=O)O)c1 — IC50 (Integrin alpha-5/beta-1 (Homo sapiens, UniProt P05556+P08648); cell adhesion, inhibitor; SW480; added: fibronectin 0.3 µg/mL): 0.02 µM
Nn1c(-c2cccs2)n[nH]c1=S — IC50 (CUGBP Elav-like family member 1 (CELF1, Homo sapiens, UniProt Q92879, del215-384); CELF1-RNA binding, inhibitor, fluorescence polarization; 20 nM CELF1, added: 10 nM RNA): 0.35 ± 0.16 µM
O=S(=O)(O)O/N=C(/Cc1ccccc1)S[C@@H]1O[C@H](CO)[C@@H](O)[C@H](O)[C@H]1O — IC50 (PTPN1 (Homo sapiens, UniProt P18031); enzyme activity, inhibitor, absorbance): 11.1 µM
N#Cc1c(N)nc2c(c1-c1ccc(CO)o1)CCc1cc(O)ccc1-2 — IC50 (Thymocyte selection-associated high mobility group box protein TOX with KAT7; TOX-KAT7 binding, inhibitor, ELISA; no inhibition at 10 µM): > 10 µM
CC(C)[C@H](NC(=O)[C@@H]1CCCN1C(=O)[C@H](CCCCN)NC(=O)[C@H](Cc1ccccc1)NC(=O)[C@H](Cc1ccccc1)NC(=O)[C@H](CC(=O)O)NC(=O)[C@H](CCC(=O)O)NC(=O)[C@H](Cc1ccc(O)cc1)NC(=O)[C@H](CC(=O)O)NC(=O)[C@H](CCC(=O)O)NC(=O)[C@H](CC(=O)O)NC(=O)[C@@H](N)CCC(=O)O)C(=O)N[C@H](C(=O)N[C@@H](C)C(=O)N[C@@H](Cc1ccc(O)cc1)C(=O)N[C@@H](Cc1ccccc1)C(N)=O)[C@@H](C)O — IC50 (CCL2 (Homo sapiens, UniProt P13500); chemokine binding, flow cytometry; THP-1; added: fluorescent CCL2 1.2 nM): 58.1 µM
Cc1nn(-c2cccc(N)c2)c(=O)c2cnc(Nc3ccc(N4CCNCC4)cc3)nc12 — IC50 (TEK (Homo sapiens, UniProt Q02763); enzyme activity, inhibitor): > 10 µM
N#Cc1ccc(NC(=O)Nc2ccccc2O)cc1 — IC50 (SRPK3 (Homo sapiens, UniProt Q9UPE1); enzyme activity, inhibitor, FRET): 2.1 µM
C=CC(=O)Nc1cccc(Cn2ncc3cnc(Nc4cnn(CCOC)c4)nc32)c1 — percent of control (IRAK3 human; binding, KINOMEscan; 100 nM; lower = stronger binding): 75%
C#CCNC(=O)c1ccc(S(=O)(=O)N[C@@H](CCCCNC(=S)NC)C(=O)N[C@@H](CCCNC(=N)N)C(=O)N[C@@H](CC2CCCCC2)C(N)=O)cc1 — IC50 (SIRT3 (Homo sapiens, UniProt Q9NTG7); enzyme activity, inhibitor, fluorescence): 0.51 µM
CC(C)C[C@H](NC(=O)[C@H](Cc1ccc(CN)cc1)NC(=O)[C@H](Cc1ccccc1)N=[N+]=[N-])C(=O)N[C@H](C(=O)[C@@]1(C)CO1)C1CCCCC1 — IC50 (PSMB5; competitive ABPP; Raji cell lysate): > 10 µM
Cc1ncsc1-c1ccc(C(C)NC(=O)C2CC(O)CN2C(=O)C(NC(=O)CCCCCCCCCCN2CCCC(Nc3ncc(Cl)c(Nc4ccccc4S(=O)(=O)C(C)C)n3)C2)C(C)(C)C)cc1 (stereo not drawn) — log2 fold change (22Rv1; RNA-seq, item: TRAF3IP3 mRNA; concentration not given; relative to: DMSO): -2.28
C[C@@H]1Cc2c([nH]c3ccccc23)[C@@H](c2c(F)cc(/C=C/C(=O)O)cc2F)N1C12CC(C1)C2 — IC50 (NR3C2 (Homo sapiens, UniProt P08235); MR receptor activity, agonist, cell-based): > 10 µM
CC[C@H](C)[C@H](NC(=O)[C@H](CCCNC(=N)N)NC(=O)[C@@H]1CCCN1C(=O)[C@@H](N)CCCCN)C(=O)N[C@@H](CCCNC(=N)N)C(=O)N[C@@H](Cc1ccccc1)C(=O)O — IC50 (B1 bradykinin receptor (Rattus norvegicus, UniProt P97583); ligand displacement, radioligand; cell membranes): 0.59 µM
COC1CN([C@H]2CC[C@H]([C@@]3(C)Oc4c(Cl)cc(C(=O)NCc5c(SC)cc(C)[nH]c5=O)c(C)c4O3)CC2)C1 — log2 fold change (RNA-seq, item: TMTC1 mouse homolog; mouse, HT-1376 xenograft, whole blood; dose not given; relative to: vehicle): 2.15
C[C@@H](O)[C@@H]1NC(=O)[C@H](CCCCN)NC(=O)[C@@H](Cc2c[nH]c3ccccc23)NC(=O)[C@H](Cc2ccc(NC(N)=O)cc2)NC(=O)[C@H](NC(=O)[C@H](Cc2ccccc2)NC(N)=O)CSSC[C@@H](C(=O)N[C@@H](Cc2ccc3ccccc3c2)C(N)=O)NC1=O — IC50 (SSTR3 (Homo sapiens, UniProt P32745); radioligand binding, inhibitor, competitive radioligand displacement; cloned receptor): 0.111 µM and 0.293 µM
Cc1c(COc2cc(OCc3cccc(C#N)c3)c(CN3CCCC[C@H]3C(=O)O)cc2Cl)cccc1-c1cccc(OCCCCCC(=O)NO)c1 — IC50 (Programmed cell death 1 ligand 1, with PD-1 (CD274, Homo sapiens, UniProt Q9NZQ7); PD-1/PD-L1 binding, inhibitor, HTRF): 0.0774 µM
N#Cc1c(N)nc2c(c1-c1ccc(CO)o1)Cc1c(O)cccc1-2 — IC50 (Thymocyte selection-associated high mobility group box protein TOX with KAT7; TOX-KAT7 binding, inhibitor, ELISA; no inhibition at 10 µM): > 10 µM
CC(C)c1noc(CN2CC(C)N(Cc3nc(C(C)C)no3)c3ccccc32)n1 (stereo not drawn) — IC50 (CXCR4 (Homo sapiens, UniProt P61073); β-arrestin recruitment, antagonist): 13 µM

Some of these lines once more:
CC(C)C[C@H](NC(=O)[C@H](Cc1ccc(CN)cc1)NC(=O)[C@H](Cc1ccccc1)N=[N+]=[N-])C(=O)N[C@@H](CC1CCCC2CCCCC21)C(=O)[C@@]1(C)CO1 (stereo partly drawn) — IC50 (Proteasome subunit beta type-9 (Homo sapiens, UniProt P28065); competitive ABPP; Raji cell lysate): > 10 µM
CN1CCCC1C(=O)NC(Cc1ccc(-n2cccn2)cc1)B(O)O (stereo not drawn) — IC50 (20S proteasome beta subunits, part β2 subunit (Plasmodium falciparum, UniProt Q8I261+Q8I6T3); β2 activity, inhibitor; added: Ac-WLR-AMC): > 10 µM
C[C@@H](Nc1c(-c2c(F)cc(C#N)cc2F)c(Cl)nc2ncnn12)C(C)(C)C — IC50 (ABCB1 (Homo sapiens, UniProt P08183); inhibitor): > 30 µM
